Measurements collected from several papers.
Each numbered part is a random draw from the data of one study; scales do not carry over between parts. Changes are numbered by the printed parent chain.

Set 1
Target: Centromere-binding protein 1, full length, N-terminal tag (CBF1, Saccharomyces cerevisiae, UniProt P17106, residues 1-351)
UniProt P17106, sequence (whole entry, looked up): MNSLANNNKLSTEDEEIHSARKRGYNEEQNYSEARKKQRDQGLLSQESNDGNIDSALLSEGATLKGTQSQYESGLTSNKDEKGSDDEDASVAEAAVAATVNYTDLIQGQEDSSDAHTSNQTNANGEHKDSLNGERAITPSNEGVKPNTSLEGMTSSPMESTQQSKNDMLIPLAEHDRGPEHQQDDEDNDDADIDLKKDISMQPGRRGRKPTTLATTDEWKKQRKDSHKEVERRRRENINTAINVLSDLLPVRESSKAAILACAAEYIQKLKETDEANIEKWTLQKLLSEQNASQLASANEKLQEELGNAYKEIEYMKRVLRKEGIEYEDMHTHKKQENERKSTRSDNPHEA
Technique: protein-binding microarray
Form: double-stranded DNA, one strand shown
Sample: in vitro
Concentration: 0.8 µM
Notes: whole 60-bp probe, no competitor
Reading: higher = stronger binding
All sequences stand within: … GTCTTGATTCGCTTGACGCTGCTG
Sequence	fluorescence intensity [a.u.]
GAAATAATTTATAATCACGCCTGGGTAAATGACTAG	1190
GAAGATTTCAAGAAAAAAATCACGTAGAAATAATAG	708
GAATATTCCTGATATCACGAGCTTGTCTTATAGTAG	1010
CTAAGTTAACTGTAACATGTGCTGCTATATAGTTTC	884
GAAGTCCGGGATGTCCACGCACGGCAATGGCCATAG	509
GAATTTGTTTTTAATCATGATGGACATGCAAGTTAG	593
CTACGAAGTTTTTATCATGTGTTAGCGTGATGGTTC	981

Set 2
Target: CCND3, cyclin fold, Cln2 fusion (human)
Technique: yeast growth competition, sequencing
Sample: yeast
Notes: weak parent motif
Baseline: not given
Reading: higher = stronger binding
Parent: ORC1 docking peptide (human); PRARKRLELGNLG; partner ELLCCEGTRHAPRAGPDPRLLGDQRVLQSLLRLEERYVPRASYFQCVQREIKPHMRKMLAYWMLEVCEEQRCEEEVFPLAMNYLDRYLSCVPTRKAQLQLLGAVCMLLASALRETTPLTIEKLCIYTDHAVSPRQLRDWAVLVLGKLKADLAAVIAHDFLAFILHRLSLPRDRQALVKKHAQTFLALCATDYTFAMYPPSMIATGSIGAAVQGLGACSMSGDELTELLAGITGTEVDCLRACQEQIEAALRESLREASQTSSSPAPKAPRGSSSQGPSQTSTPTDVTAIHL
Change	normalised enrichment score
G13S	0.201
P1C	0.245
R6A	-0.0324
G13R	0.072
E8I	0.078
R4D	0.176
N11C	0.196
R2V	0.124
K5V	0.0895

Set 3
Target: Prothrombin, mature alpha-thrombin (F2, Homo sapiens, UniProt P00734)
Technique: aptamer microarray, sandwich
Form: DNA with 2'F-ANA
Sample: in vitro
Concentration: 200 nM
Notes: whole 15-mer aptamer, many near background
Added: Cy3 exosite-II aptamer, 400 nM
Reading: higher = stronger binding
Sequence: GGTTGGTGTGGTTGG
Modification	mean fluorescence intensity [a.u.]
2'F-ANA at 2 3 7 8 9 13 14	425
2'F-ANA at 2 6 7 8 10 13 15	99.9
2'F-ANA at 1 2 3 6 7 8 9 10 14	89.4
2'F-ANA at 1 2 3 4 5 8 9 10 11 15	54
2'F-ANA at 1 2 3 4 5 6 8 9 12 14	50.4
2'F-ANA at 1 2 5 7 13 14	45.7
2'F-ANA at 2 3 7 13	837
2'F-ANA at 3 6 7 8 13 14	655
2'F-ANA at 1 6 7 8 9 10 11 13	54.5
2'F-ANA at 1 4 9 11	113
2'F-ANA at 1 3 8 10 11 14	70.6

Mixed results
Substance	target	assay	test system	setting	how to read	measurement	value
PhoQ, residues 284 288 289 292 302 303 SASVAL	PhoP, residues 12 14 15 18 19 HEGLL (Escherichia coli, UniProt P23836)	Sort-seq, refers to: YFP reporter	E. coli	PhoQ-PhoP variant library, added: 10 µM Mg2+	baseline: high Mg2+ state, higher = stronger signaling	fold induction	1.41

For quick reference, copied from above (set 3):
Modification	mean fluorescence intensity [a.u.]
2'F-ANA at 1 4 9 11	113
2'F-ANA at 2 3 7 13	837
2'F-ANA at 2 3 7 8 9 13 14	425
2'F-ANA at 1 2 3 4 5 6 8 9 12 14	50.4
